Assay results of several laboratories.
Every numbered part comes from another study and shows a few of its results, in no order. Several values in a cell are separate wells, animals, samples, runs or records.
Chain of UniProt P41143 (whole entry, unmodified, looked up): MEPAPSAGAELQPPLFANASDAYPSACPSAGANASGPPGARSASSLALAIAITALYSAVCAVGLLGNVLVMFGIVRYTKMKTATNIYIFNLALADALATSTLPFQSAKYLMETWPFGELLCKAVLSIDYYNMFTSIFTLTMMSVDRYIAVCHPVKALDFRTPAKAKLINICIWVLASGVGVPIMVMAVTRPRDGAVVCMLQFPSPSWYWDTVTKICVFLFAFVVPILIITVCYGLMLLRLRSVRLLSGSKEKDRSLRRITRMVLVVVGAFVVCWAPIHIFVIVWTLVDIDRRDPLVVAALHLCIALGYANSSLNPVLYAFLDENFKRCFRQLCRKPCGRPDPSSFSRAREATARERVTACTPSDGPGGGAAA

Series 1
Structure (SMILES): N=C(N)NCCCCCCN1CCC23c4c5ccc(O)c4OC2c2nc4ccccc4cc2CC3(O)C1C5 (stereo not shown)
target	test	system	EC50
Delta-type opioid receptor, with Gi1 (OPRD1, Homo sapiens, UniProt P41143, D95A)	G protein activation, agonist	–	204 nM
Delta-type opioid receptor, with Gz (OPRD1, Homo sapiens, UniProt P41143)	–	human cells	4.33 nM
Delta-type opioid receptor, with Gi3 (OPRD1, Homo sapiens, UniProt P41143)	–	human cells	12.8 nM
Delta-type opioid receptor, with GoB (OPRD1, Homo sapiens, UniProt P41143)	–	human cells	8.14 nM
Delta-type opioid receptor, with Gi2 (OPRD1, Homo sapiens, UniProt P41143)	–	human cells	20.9 nM

Series 2
Compound: C#CCN1C(=O)C(O)(C(=O)O)Oc2cc(F)ccc21 (stereo not shown)
organism	test	system	setting	inhibition
Amaranthus retroflexus	fresh weight	–	150 g ai/ha, post-emergence treatment	67.5% and 65.3% and 68.6%
Arabidopsis thaliana	hypocotyl length	Col-0	25.0 µg/mL, 7 days, seed germination, dark	41%
Glycine max	fresh weight	–	soil surface spray, 150 g ai/ha, 21 days, pre-emergence crop safety	19.8% and 20% and 19.3%
Arabidopsis thaliana	hypocotyl length	Col-0	12.5 µg/mL, 7 days, seed germination, dark	29.6%
Avena fatua	fresh weight	–	150 g ai/ha, pre-emergence treatment	100%
Arabidopsis thaliana	hypocotyl length	Col-0	100 µg/mL, 7 days, seed germination, dark	95.8%

Series 3
SMILES: CCCCC[C@@H]1CC(=O)N[C@@H](C(C)C)C(=O)N[C@H](CCCNC(=N)N)C(=O)N[C@@H](C(C)C)C(=O)NCC(=O)N2CCC[C@H]2C(=O)N[C@@H](CC(C)C)C(=O)N[C@H](CCCNC(=N)N)C(=O)N[C@@H](CCC(=O)O)C(=O)N[C@H](Cc2ccc(O)cc2)C(=O)N[C@H](Cc2c[nH]c3ccccc23)C(=O)NCCCC(=O)O1
Organism: Staphylococcus aureus
Strain: USA300
Tested at: 2 x MIC
setting	viable cells
120 min	1000 CFU/mL and 800 CFU/mL
240 min	500 CFU/mL and 600 CFU/mL and 300 CFU/mL
60 min	1200 CFU/mL and 1500 CFU/mL and 1400 CFU/mL
15 min	3700 CFU/mL and 4000 CFU/mL and 4700 CFU/mL
180 min	700 CFU/mL and 500 CFU/mL and 800 CFU/mL

Series 4
SMILES: Cn1cc(-c2cccc(CN3CCC4(CC3)COc3c4ccc4c3CN([C@H]3CCC(=O)NC3=O)C4=O)c2)cn1
Host: Crbn I391V mouse, MC-38 tumour
setting	tumour volume
30 mg/kg, day 6, with: anti-LAG3 antibody 10 mg/kg weekly	106 mm3 and 563 mm3 and 172 mm3 and 434 mm3 and 169 mm3
oral, daily, 30 mg/kg, day 22, anti-PD1 combination study	634 mm3 and 1320 mm3 and 2010 mm3 and 452 mm3
30 mg/kg, day 17, with: anti-LAG3 antibody 10 mg/kg weekly	1120 mm3 and 230 mm3 and 262 mm3 and 962 mm3 and 849 mm3 and 333 mm3 and 45.9 mm3 and 552 mm3
oral, 30 mg/kg once daily, day 22	1620 mm3 and 53.4 mm3 and 773 mm3 and 1060 mm3 and 916 mm3
30 mg/kg, day 4, with: anti-LAG3 antibody 10 mg/kg weekly	104 mm3 and 116 mm3 and 110 mm3 and 118 mm3 and 248 mm3
oral, daily, 30 mg/kg, day 8, anti-PD1 combination study	270 mm3 and 306 mm3 and 523 mm3 and 181 mm3 and 325 mm3
30 mg/kg, day 8, with: anti-LAG3 antibody 10 mg/kg weekly	306 mm3 and 252 mm3 and 564 mm3 and 354 mm3
30 mg/kg, day 46, with: anti-LAG3 antibody 10 mg/kg weekly	912 mm3
oral, daily, 30 mg/kg, day 28, anti-PD1 combination study	1690 mm3 and 701 mm3 and 819 mm3 and 1620 mm3 and 976 mm3
oral, daily, 30 mg/kg, day 25, anti-PD1 combination study	2010 mm3 and 2040 mm3 and 1120 mm3 and 417 mm3 and 519 mm3 and 1170 mm3 and 573 mm3
oral, 30 mg/kg once daily, day 1	89.1 mm3 and 78.8 mm3 and 71.2 mm3 and 87.5 mm3 and 107 mm3
30 mg/kg, day 27, with: anti-LAG3 antibody 10 mg/kg weekly	691 mm3 and 1760 mm3 and 79.8 mm3 and 1470 mm3 and 596 mm3
oral, daily, 30 mg/kg, day 5, anti-PD1 combination study	175 mm3 and 229 mm3 and 546 mm3 and 266 mm3 and 238 mm3
oral, 30 mg/kg once daily, day 7	281 mm3 and 75.1 mm3 and 341 mm3 and 133 mm3 and 247 mm3
oral, 30 mg/kg once daily, day 18	510 mm3 and 46.9 mm3 and 630 mm3 and 31.5 mm3 and 63.6 mm3
oral, daily, 30 mg/kg, day 12, anti-PD1 combination study	500 mm3 and 471 mm3 and 692 mm3 and 260 mm3 and 216 mm3
30 mg/kg, day 39, with: anti-LAG3 antibody 10 mg/kg weekly	285 mm3

Mixed results
Structure (SMILES)	organism	test	system	setting	how to read	endpoint	result
FC(F)(F)c1ccc(C2=NOC3(NC(c4ccccc4)=NO3)N2c2ccccc2)cc1 (stereo not shown)	Plasmodium falciparum	SYBR Gold	SB1-A6	72 h	relative to: IC50 SB1-A6 over wild type	resistance index	6 fold

A few entries again (series 3):
setting	viable cells
120 min	1000 CFU/mL and 800 CFU/mL
240 min	500 CFU/mL and 600 CFU/mL and 300 CFU/mL
60 min	1200 CFU/mL and 1500 CFU/mL and 1400 CFU/mL
15 min	3700 CFU/mL and 4000 CFU/mL and 4700 CFU/mL
